Assay results from different studies.
Each numbered part is a random draw from the data of one study; scales do not carry over between parts. Values joined by “and” are separate records of one study, mostly repeats; a detail may differ.
Chain of UniProt P51812 (whole entry, looked up): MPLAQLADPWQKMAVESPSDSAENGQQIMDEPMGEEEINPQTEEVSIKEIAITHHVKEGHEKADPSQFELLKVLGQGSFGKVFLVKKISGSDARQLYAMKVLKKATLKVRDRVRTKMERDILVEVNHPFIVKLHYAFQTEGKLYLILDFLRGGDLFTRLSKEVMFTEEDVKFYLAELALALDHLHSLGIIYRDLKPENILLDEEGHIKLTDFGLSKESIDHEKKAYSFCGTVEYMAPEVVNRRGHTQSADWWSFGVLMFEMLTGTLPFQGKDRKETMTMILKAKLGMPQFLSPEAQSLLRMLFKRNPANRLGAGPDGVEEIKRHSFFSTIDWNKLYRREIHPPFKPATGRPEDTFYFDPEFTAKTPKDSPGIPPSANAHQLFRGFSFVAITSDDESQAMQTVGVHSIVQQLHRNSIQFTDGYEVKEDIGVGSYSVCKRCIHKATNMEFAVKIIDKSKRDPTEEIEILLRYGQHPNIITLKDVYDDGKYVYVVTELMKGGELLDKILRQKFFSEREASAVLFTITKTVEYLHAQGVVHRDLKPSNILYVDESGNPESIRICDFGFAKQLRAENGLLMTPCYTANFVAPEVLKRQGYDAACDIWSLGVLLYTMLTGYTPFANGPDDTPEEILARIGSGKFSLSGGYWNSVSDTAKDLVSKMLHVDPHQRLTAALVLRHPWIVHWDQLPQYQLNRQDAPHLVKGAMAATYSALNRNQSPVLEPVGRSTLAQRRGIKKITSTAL
Chain of UniProt Q9HC98 (whole entry, looked up): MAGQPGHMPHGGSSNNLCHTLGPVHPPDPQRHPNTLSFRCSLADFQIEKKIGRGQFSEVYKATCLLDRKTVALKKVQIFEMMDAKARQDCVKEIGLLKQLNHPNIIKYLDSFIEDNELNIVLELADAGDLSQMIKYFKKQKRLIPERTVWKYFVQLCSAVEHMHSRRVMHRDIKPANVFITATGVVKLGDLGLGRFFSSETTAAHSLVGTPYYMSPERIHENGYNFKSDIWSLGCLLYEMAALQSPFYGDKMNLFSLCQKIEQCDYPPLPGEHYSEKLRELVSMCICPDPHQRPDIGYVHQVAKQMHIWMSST

Series 1 — SMILES: C=CCc1ccc(O)c(-c2ccc(O)c(CC=C)c2)c1; effect on: chloride current; method: whole-cell voltage clamp; measurement: IC50
ANO1 del476-501/F803Y: Anoctamin-1 (ANO1, Homo sapiens, UniProt Q5XXA6, del476-501/F803Y)
Chain of UniProt Q5XXA6 (whole entry, unmodified, looked up): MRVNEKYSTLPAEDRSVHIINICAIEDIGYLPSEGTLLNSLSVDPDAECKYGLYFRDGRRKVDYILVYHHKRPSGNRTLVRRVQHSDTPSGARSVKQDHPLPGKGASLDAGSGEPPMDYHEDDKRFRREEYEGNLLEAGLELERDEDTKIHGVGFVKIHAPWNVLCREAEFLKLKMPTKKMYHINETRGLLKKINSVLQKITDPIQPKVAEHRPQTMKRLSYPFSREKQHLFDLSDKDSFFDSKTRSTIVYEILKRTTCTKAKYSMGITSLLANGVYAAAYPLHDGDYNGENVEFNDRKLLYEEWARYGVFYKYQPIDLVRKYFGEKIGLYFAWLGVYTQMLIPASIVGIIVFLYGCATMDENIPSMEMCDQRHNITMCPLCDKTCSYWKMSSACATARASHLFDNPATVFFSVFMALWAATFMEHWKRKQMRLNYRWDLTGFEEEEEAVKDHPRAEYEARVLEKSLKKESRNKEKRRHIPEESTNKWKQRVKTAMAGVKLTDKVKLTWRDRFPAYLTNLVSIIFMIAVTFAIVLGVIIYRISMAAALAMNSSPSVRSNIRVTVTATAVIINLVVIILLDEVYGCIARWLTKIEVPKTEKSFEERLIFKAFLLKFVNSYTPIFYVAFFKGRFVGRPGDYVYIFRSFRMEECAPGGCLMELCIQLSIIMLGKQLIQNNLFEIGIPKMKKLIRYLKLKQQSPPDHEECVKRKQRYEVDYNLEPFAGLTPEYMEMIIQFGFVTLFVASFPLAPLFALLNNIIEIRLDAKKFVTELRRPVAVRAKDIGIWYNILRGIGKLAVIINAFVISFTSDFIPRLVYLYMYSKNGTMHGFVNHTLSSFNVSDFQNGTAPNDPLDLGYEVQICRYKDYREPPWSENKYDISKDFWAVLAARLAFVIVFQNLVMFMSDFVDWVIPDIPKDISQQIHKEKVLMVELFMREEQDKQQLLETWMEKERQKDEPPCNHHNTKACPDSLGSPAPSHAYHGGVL
target = ANO1 del476-501/F803Y; assay = inhibitor; conditions = 80 mV holding voltage; result = 12 µM
target = Anoctamin-1 (ANO1, Homo sapiens, UniProt Q5XXA6, del476-501/F803W); assay = inhibitor; conditions = 40 mV holding voltage; result = 5.21 µM
target = Anoctamin-1 (ANO1, Homo sapiens, UniProt Q5XXA6, del476-501/L548A); conditions = membrane voltage 80 mV; result = 6.35 µM
target = Anoctamin-1 (ANO1, Homo sapiens, UniProt Q5XXA6, del476-501/F623A); conditions = membrane voltage 100 mV; result = 8.81 µM
target = Anoctamin-1 (ANO1, Homo sapiens, UniProt Q5XXA6, del476-501/R561A); conditions = membrane voltage -20 mV; result = 4.63 µM
target = ANO1 del476-501/F803Y; assay = inhibitor; conditions = mutant F777Y; result = 13.5 µM

Series 2 — cell line: HaCaT; concentration: 100 µM; time: 60 h; measurement: viability
Structure (SMILES) = CCOc1ccc(NC(C)=O)cc1; result = 126%
Structure (SMILES) = N#CCC(C1CCCC1)n1cc(-c2ncnc3[nH]ccc23)cn1 (stereo not shown); result = 25.3%
Structure (SMILES) = C[Se]CC[C@H](N)C(=O)O; result = 131%
Structure (SMILES) = COC(=O)c1ccc2c(c1)NC(=O)/C2=C(\Nc1ccc(N(C)C(=O)CN2CCN(C)CC2)cc1)c1ccccc1; result = 112%

Series 3 — effect on: enzyme activity; mode: inhibitor; concentration: 10 µM; measurement: inhibition
Target: Calcium/calmodulin-dependent protein kinase type II subunit alpha (CAMK2A, Homo sapiens, UniProt Q9UQM7)
Chain of UniProt Q9UQM7 (whole entry, looked up): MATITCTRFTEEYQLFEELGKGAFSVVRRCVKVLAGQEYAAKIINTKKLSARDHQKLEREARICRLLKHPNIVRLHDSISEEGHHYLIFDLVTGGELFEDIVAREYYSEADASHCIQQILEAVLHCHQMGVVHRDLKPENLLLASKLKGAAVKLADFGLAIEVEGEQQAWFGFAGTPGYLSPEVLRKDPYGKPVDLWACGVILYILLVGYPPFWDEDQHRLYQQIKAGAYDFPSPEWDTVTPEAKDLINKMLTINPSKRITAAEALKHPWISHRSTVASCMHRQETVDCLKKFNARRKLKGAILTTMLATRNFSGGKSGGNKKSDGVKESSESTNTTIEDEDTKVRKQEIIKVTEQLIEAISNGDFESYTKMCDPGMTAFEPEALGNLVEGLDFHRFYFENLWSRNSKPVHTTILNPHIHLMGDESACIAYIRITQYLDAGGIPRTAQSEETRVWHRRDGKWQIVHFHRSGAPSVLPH
Compound = CN(C)CC(=O)O; result = -2%
Compound = CC[C@H](C)C(=O)O[C@H]1CCC=C2C=C[C@H](C)[C@H](CC[C@@H]3C[C@@H](O)CC(=O)O3)[C@H]21; result = -17%
Compound = C[C@@H]1O[C@@H](OC[C@H]2O[C@@H](OCCc3ccc(O)c(O)c3)[C@H](O)[C@@H](OC(=O)/C=C/c3ccc(O)c(O)c3)[C@@H]2O)[C@H](O)[C@H](O)[C@H]1O; result = -0.15% and -0.17%
Compound = C/C(=C\CO)CCC[C@H](C)CCC[C@H](C)CCCC(C)C; result = -10%
Compound = COc1cc(CNC(=O)CCCC/C=C/C(C)C)ccc1O[C@@H]1O[C@H](CO)[C@@H](O)[C@H](O)[C@H]1O; result = -20%
Compound = COC(=O)c1ccc(O)c(OC)c1; result = 31%

Series 4 — species: human; sample: microsomes or S9; concentration: 2 µM; time: 0.5 h; measurement: remaining compound
SMILES = O=C(NC1CCN(CCc2ccc(F)cc2)CC1)c1cc2ccccc2s1; result = 67.6%
SMILES = Cc1nn(C)cc1Nc1nnc(Cn2nc(C(F)(F)F)c(Cl)c2C)s1; result = 58.9%
SMILES = Cc1ccc(N(CCO)C2=NS(=O)(=O)c3ccccc32)cc1; result = 29.1%
SMILES = COc1cc(C2CC(=O)Oc3cc4c(c(OC)c32)C(=O)O[C@@H](C)CCCC(=O)CCC/C=C/4)cc2c1OCCO2 (stereo partly shown); result = 10.8%
SMILES = CN(C(=O)c1ccc2cc[nH]c2c1)C1CCc2nn(C)c(=O)n2CC1 (stereo not shown); result = > 100%

Series 5 — method: competition with immobilised ligand; concentration: 1 µM; measurement: remaining binding
SMILES: COc1cc(-c2cn(C3CCc4c(F)cccc4N(CC(F)(F)F)C3=O)nn2)ccc1-n1cnc(C)c1 (stereo not shown)
target = Epidermal growth factor receptor (EGFR, Homo sapiens, UniProt P00533, del747-752/P753S); assay = cell-free assay; result = 0%
target = Interleukin-1 receptor-associated kinase 3 (IRAK3, Homo sapiens, UniProt Q9Y616); assay = cell-free assay; result = 100%
target = Tyrosine-protein kinase Fer (FER, Homo sapiens, UniProt P16591); assay = cell-free assay; result = 100%
target = Serine/threonine-protein kinase Nek4 (NEK4, Homo sapiens, UniProt P51957); assay = cell-free assay; result = 100%
target = Receptor-interacting serine/threonine-protein kinase 4 (RIPK4, Homo sapiens, UniProt P57078); assay = cell-free assay; result = 56%
target = Receptor-type tyrosine-protein kinase FLT3 (FLT3, Homo sapiens, UniProt P36888, D835Y); assay = cell-free assay; result = 86%
target = Wee1-like protein kinase 2 (WEE2, Homo sapiens, UniProt P0C1S8); assay = cell-free assay; result = 100%
target = Serine/threonine-protein kinase WNK4 (WNK4, Homo sapiens, UniProt Q96J92); assay = cell-free assay; result = 100%
target = Serine/threonine-protein kinase Nek6 (NEK6, Homo sapiens, UniProt Q9HC98); assay = cell-free assay; result = 100%
target = Homeodomain-interacting protein kinase 3 (HIPK3, Homo sapiens, UniProt Q9H422); assay = cell-free assay; result = 100%
target = Calcium/calmodulin-dependent protein kinase type II subunit beta (CAMK2B, Homo sapiens, UniProt Q13554); assay = cell-free assay; result = 100%
target = Phosphatidylinositol 5-phosphate 4-kinase type-2 beta (PIP4K2B, Homo sapiens, UniProt P78356); assay = cell-free assay; result = 73%
target = Calcium/calmodulin-dependent protein kinase kinase 2 (CAMKK2, Homo sapiens, UniProt Q96RR4); assay = cell-free assay; result = 100%
target = Dual specificity mitogen-activated protein kinase kinase 6 (MAP2K6, Homo sapiens, UniProt P52564); assay = cell-free assay; result = 100%
target = Ribosomal protein S6 kinase alpha-3, C-terminal kinase domain (RPS6KA3, Homo sapiens, UniProt P51812); assay = cell-free assay; result = 100%
target = Receptor-type tyrosine-protein kinase FLT3 (FLT3, Homo sapiens, UniProt P36888); assay = cell-free assay; result = 89%
target = Receptor-type tyrosine-protein kinase FLT3 (FLT3, Homo sapiens, UniProt P36888, ITD); assay = cell-free assay; result = 100%
target = Cyclin-dependent kinase 11A (CDK11A, Homo sapiens, UniProt Q9UQ88); assay = binding; result = 100%
target = Serine/threonine-protein kinase Nek7 (NEK7, Homo sapiens, UniProt Q8TDX7); assay = cell-free assay; result = 100%
target = Rho-associated protein kinase 2 (ROCK2, Homo sapiens, UniProt O75116); assay = cell-free assay; result = 100%
target = cGMP-dependent protein kinase 2 (PRKG2, Homo sapiens, UniProt Q13237); assay = cell-free assay; result = 100%
target = Serine/threonine-protein kinase VRK2 (VRK2, Homo sapiens, UniProt Q86Y07); assay = cell-free assay; result = 100%
target = Calcium/calmodulin-dependent protein kinase type II subunit delta (CAMK2D, Homo sapiens, UniProt Q13557); assay = cell-free assay; result = 100%
target = Cyclin-G-associated kinase (GAK, Homo sapiens, UniProt O14976); assay = cell-free assay; result = 88%
target = Interferon-induced, double-stranded RNA-activated protein kinase (EIF2AK2, Homo sapiens, UniProt P19525); assay = cell-free assay; result = 100%

Series 6 — effect on: enzyme activity; mode: inhibitor; concentration: 77 µM; relative to: untreated; measurement: remaining activity
Target: DNA polymerase theta, ATPase domain (POLQ, Homo sapiens, UniProt O75417)
Chain of UniProt O75417 (whole entry, unmodified, looked up): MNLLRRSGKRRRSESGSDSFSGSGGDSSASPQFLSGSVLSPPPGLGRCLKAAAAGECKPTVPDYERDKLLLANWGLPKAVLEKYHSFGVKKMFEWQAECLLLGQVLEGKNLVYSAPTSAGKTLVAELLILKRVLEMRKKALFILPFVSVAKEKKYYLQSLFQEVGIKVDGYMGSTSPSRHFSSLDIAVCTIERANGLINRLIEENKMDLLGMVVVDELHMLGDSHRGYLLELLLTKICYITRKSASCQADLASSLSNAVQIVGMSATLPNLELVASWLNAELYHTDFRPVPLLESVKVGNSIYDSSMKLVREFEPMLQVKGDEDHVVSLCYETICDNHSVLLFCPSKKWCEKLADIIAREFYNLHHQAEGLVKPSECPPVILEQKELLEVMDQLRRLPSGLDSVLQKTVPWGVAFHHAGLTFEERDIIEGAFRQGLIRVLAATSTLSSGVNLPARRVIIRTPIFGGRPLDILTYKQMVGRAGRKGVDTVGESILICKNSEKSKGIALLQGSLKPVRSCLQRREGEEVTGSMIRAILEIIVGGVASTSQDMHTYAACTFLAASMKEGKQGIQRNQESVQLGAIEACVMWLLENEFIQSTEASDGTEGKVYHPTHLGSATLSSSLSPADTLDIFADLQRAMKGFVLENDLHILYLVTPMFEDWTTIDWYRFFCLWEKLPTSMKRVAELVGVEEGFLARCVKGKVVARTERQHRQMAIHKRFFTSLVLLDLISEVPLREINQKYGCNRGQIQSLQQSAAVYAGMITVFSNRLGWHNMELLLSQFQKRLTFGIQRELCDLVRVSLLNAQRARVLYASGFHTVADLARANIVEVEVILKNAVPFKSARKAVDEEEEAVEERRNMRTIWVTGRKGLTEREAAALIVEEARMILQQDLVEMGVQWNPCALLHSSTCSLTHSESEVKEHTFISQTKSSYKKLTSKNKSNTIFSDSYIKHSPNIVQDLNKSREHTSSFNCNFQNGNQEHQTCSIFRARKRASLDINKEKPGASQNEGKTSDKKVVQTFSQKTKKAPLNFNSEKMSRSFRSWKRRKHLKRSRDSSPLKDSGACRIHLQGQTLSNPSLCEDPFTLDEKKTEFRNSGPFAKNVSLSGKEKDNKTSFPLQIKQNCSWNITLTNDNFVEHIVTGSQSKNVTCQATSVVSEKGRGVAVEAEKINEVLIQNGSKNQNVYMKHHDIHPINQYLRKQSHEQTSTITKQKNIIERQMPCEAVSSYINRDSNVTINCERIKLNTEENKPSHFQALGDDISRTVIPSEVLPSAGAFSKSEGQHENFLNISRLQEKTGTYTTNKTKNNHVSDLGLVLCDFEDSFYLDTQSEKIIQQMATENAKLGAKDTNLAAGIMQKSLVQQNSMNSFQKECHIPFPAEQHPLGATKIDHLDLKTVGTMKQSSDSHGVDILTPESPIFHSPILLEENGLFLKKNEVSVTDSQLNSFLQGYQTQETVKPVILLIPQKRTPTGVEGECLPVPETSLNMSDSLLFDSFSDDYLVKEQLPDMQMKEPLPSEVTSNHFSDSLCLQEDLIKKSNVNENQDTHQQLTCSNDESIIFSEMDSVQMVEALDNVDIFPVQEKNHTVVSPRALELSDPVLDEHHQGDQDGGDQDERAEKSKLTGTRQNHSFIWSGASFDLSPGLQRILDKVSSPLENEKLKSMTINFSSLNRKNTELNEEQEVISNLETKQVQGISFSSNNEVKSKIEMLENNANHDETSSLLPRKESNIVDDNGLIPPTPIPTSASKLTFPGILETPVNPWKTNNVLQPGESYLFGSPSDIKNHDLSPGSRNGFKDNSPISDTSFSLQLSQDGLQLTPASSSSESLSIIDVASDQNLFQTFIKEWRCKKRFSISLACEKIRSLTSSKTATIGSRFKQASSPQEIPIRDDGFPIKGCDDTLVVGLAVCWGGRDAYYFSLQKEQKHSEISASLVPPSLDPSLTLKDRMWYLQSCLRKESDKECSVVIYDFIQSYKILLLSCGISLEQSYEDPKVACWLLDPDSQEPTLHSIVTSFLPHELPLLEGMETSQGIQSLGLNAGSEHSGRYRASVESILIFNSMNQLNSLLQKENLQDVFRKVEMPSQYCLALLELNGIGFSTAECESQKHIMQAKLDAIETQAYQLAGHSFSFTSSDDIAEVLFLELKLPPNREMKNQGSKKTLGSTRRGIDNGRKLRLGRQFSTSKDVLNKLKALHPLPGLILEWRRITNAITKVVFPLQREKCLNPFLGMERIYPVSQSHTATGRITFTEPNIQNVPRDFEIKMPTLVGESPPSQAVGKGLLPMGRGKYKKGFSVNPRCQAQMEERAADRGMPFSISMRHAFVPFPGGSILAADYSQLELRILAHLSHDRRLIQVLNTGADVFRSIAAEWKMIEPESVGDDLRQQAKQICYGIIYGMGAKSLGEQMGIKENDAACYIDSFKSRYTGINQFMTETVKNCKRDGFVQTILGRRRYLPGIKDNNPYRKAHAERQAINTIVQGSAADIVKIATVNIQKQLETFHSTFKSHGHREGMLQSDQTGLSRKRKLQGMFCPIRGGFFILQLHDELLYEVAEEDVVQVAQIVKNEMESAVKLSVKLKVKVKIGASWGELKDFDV
SMILES = Cc1cc(C(=O)Nc2cc(Nc3ccc4c(/C=C/c5ccccn5)n[nH]c4c3)ccc2F)n(C)n1; result = 109% and 116% and 113%
SMILES = COc1ccc2c(c1)c(CC(=O)OCC(=O)O)c(C)n2C(=O)c1ccc(Cl)cc1; result = 102% and 97.1%
SMILES = CCCCCCN(CCCCCC)C(=O)Cc1c(-c2ccc(F)cc2)[nH]c2ccccc12; result = 100%
SMILES = O=C(COc1ccc(C(=O)c2ccccc2)cc1)NC1CCN(Cc2ccccc2)CC1; result = 104%
SMILES = CO[C@@H]1[C@@H](OC(N)=O)[C@@H](O)[C@H](Oc2ccc3c(O)c(NC(=O)c4ccc(O)c(CC=C(C)C)c4)c(=O)oc3c2C)OC1(C)C; result = 61.9%

Mixed results
SMILES = Cc1ccc(C(=O)Nc2ccc(CN3CCN(C)CC3)c(C(F)(F)F)c2)cc1C#Cc1cnc2cccnn12; target = Receptor-type tyrosine-protein kinase FLT3, ITD (FLT3, Homo sapiens, UniProt P36888); assay = cell-based; conditions = concentration not given; measurement = FLT3-HSP90 interaction; result = decreased

Some of these lines once more (series 6):
SMILES = CCCCCCN(CCCCCC)C(=O)Cc1c(-c2ccc(F)cc2)[nH]c2ccccc12; result = 100%
SMILES = Cc1cc(C(=O)Nc2cc(Nc3ccc4c(/C=C/c5ccccn5)n[nH]c4c3)ccc2F)n(C)n1; result = 109% and 116% and 113%
SMILES = CO[C@@H]1[C@@H](OC(N)=O)[C@@H](O)[C@H](Oc2ccc3c(O)c(NC(=O)c4ccc(O)c(CC=C(C)C)c4)c(=O)oc3c2C)OC1(C)C; result = 61.9%
SMILES = COc1ccc2c(c1)c(CC(=O)OCC(=O)O)c(C)n2C(=O)c1ccc(Cl)cc1; result = 102% and 97.1%
SMILES = O=C(COc1ccc(C(=O)c2ccccc2)cc1)NC1CCN(Cc2ccccc2)CC1; result = 104%
